Measurements collected from several papers.
Lines come from different studies, so protocols differ. Numbers after ± are the reported error.
PFF0160c E182D: Dihydroorotate dehydrogenase (quinone), mitochondrial (PFF0160c, Plasmodium falciparum, UniProt Q08210, E182D)
Sequence of UniProt P22303 (whole entry, looked up): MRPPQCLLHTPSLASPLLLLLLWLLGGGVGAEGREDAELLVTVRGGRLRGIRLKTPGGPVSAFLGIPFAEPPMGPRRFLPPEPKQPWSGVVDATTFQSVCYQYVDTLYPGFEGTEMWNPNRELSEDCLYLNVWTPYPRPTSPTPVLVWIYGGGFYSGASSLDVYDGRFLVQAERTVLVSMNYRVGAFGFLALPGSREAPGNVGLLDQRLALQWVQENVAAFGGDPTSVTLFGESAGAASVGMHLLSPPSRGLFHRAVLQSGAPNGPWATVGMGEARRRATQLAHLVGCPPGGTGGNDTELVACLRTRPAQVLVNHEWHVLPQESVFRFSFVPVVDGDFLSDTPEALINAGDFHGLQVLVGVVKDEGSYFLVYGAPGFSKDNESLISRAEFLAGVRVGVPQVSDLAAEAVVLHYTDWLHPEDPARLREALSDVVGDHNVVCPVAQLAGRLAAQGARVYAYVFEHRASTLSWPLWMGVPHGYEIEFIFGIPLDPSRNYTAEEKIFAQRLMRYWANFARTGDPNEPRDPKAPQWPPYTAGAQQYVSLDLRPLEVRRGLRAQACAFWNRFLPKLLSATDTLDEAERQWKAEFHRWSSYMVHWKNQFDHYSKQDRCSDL
Sequence of UniProt Q9P2K8 (whole entry, looked up): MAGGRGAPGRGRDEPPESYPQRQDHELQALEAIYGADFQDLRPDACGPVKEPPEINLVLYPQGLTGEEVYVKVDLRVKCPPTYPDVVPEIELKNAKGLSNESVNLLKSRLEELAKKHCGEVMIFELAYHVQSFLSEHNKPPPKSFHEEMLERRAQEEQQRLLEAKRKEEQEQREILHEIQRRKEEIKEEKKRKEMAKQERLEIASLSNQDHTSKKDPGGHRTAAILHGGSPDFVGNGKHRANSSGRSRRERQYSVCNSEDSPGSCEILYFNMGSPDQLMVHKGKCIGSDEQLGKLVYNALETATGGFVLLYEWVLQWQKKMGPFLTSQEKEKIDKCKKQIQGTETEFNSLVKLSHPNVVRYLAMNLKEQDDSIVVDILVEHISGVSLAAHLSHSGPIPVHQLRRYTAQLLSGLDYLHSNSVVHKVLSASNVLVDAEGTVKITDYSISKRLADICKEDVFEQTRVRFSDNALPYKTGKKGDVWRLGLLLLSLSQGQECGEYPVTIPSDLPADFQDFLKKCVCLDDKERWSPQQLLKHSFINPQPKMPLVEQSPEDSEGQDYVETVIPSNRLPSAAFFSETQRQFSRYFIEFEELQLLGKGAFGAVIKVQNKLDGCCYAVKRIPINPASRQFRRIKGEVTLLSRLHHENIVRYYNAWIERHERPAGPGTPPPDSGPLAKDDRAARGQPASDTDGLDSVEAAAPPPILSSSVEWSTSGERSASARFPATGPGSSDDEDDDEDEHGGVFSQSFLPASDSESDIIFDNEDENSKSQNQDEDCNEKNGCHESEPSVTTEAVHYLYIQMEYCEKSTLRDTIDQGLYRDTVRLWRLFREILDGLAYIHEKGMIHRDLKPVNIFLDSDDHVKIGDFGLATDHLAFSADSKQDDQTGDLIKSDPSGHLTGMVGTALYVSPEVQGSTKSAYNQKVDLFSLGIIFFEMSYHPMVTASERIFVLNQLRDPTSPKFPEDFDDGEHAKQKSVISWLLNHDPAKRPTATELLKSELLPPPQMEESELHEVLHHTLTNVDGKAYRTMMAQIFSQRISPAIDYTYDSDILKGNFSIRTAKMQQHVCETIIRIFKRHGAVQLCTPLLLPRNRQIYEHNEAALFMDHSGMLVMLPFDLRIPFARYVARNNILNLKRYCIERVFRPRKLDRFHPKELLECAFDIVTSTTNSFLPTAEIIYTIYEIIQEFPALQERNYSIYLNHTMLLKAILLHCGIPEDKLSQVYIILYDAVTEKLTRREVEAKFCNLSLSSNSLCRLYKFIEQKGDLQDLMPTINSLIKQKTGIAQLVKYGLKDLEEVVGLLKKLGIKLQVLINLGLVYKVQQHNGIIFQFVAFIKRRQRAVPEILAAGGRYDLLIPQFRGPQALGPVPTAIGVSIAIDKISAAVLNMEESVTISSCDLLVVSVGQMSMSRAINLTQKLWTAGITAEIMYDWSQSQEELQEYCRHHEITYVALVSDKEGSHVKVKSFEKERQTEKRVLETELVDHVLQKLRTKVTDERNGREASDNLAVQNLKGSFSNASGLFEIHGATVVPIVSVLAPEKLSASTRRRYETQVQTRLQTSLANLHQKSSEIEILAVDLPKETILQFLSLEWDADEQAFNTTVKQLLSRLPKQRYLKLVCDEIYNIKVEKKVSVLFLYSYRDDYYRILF
Sequence of UniProt P57058 (whole entry, looked up): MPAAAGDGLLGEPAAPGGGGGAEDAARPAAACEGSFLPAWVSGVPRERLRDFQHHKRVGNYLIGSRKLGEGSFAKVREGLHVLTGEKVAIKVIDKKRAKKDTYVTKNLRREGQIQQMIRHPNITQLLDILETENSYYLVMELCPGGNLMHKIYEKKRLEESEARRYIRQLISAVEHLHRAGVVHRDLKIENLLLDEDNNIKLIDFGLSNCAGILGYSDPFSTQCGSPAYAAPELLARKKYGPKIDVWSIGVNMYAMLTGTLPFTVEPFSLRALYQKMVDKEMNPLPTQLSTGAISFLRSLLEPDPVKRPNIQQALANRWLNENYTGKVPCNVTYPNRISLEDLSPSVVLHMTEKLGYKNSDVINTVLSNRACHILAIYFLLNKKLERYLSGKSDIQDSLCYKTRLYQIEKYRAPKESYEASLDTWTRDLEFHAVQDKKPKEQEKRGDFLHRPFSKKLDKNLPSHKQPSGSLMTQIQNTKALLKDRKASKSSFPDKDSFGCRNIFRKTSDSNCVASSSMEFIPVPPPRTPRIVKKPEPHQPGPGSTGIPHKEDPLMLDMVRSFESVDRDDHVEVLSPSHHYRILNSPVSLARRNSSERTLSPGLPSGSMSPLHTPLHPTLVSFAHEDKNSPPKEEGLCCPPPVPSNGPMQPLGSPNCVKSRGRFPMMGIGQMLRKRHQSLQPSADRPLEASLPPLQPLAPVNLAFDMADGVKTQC
Sequence of UniProt Q9NZH0 (whole entry, looked up): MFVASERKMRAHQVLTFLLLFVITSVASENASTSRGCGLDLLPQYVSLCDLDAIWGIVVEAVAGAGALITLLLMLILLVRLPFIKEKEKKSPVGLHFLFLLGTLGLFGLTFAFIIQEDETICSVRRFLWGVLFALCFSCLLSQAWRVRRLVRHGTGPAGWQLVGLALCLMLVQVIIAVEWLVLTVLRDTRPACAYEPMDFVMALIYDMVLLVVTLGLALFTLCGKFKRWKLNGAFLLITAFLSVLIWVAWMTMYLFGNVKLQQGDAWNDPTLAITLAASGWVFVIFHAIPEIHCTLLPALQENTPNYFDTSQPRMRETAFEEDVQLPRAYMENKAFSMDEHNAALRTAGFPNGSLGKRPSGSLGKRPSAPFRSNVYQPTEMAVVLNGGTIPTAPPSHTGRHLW
Sequence of UniProt P14868 (whole entry, looked up): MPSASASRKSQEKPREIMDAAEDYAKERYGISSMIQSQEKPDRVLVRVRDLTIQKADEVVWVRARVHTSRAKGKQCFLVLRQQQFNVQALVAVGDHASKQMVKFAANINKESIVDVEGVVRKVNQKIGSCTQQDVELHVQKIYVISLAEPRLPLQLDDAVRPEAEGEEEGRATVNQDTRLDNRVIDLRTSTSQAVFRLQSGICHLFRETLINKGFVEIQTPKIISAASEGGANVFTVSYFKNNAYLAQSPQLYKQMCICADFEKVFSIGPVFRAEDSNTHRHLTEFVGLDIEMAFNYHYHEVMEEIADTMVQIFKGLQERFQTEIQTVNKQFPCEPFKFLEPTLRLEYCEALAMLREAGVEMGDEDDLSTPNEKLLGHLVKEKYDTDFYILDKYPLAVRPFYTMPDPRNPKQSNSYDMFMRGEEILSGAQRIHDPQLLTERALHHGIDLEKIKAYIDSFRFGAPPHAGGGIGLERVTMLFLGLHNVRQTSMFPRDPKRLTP
Sequence of UniProt P62937 (whole entry, looked up): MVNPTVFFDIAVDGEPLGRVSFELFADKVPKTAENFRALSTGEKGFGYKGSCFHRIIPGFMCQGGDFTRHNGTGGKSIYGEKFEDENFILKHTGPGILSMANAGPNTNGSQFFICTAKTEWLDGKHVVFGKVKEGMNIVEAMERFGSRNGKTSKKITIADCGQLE
Sequence of UniProt Q96P65 (whole entry, looked up): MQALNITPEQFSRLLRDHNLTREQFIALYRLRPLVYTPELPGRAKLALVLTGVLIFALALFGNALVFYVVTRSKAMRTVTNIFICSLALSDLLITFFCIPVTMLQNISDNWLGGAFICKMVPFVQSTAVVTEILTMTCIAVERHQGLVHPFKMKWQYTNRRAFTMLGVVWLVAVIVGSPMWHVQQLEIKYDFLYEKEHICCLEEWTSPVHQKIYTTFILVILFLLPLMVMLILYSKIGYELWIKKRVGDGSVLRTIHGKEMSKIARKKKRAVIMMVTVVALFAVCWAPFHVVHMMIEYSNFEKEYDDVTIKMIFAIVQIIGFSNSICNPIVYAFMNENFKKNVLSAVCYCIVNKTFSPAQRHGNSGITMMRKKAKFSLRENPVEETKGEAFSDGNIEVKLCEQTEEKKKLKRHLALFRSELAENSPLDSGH
Sequence of UniProt Q62666 (whole entry, looked up): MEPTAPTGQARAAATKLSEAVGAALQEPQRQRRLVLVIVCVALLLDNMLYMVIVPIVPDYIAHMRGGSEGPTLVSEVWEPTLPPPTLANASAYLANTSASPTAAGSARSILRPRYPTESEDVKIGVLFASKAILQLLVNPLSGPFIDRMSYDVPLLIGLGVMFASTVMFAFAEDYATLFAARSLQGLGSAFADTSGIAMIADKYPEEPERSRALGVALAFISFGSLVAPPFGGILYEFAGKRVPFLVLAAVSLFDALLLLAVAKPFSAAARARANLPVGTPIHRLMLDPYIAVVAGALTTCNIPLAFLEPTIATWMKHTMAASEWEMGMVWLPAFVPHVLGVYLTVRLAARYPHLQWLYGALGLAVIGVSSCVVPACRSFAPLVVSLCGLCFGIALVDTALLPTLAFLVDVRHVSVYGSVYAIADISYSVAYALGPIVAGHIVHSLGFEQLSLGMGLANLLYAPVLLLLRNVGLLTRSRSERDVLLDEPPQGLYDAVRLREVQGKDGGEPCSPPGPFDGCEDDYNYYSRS

SMILES | target | test | test system | conditions | how to read | endpoint | value
Nc1nc2c(ncn2[C@@H]2O[C@H](COP(=O)(O)OP(=O)(O)OP(=O)(O)O)[C@@H](O)[C@H]2O)c(=O)[nH]1 | GTP 3',8-cyclase (moaA, Staphylococcus aureus, UniProt P69848, R17A) | isothermal titration calorimetry |  | concentration not given, 25 °C, R17A mutant, anaerobic |  | binding enthalpy | -4.1 ± 0.3 kcal/mol
COC(=O)C1=CNC=C(C(=O)OC)C1c1ccc(Cl)c([N+](=O)[O-])c1 | PFF0160c E182D | enzyme activity, DCIP colorimetric |  |  | relative to: E182D mutant over wild type | IC50 ratio | 1.2
Cc1ccnc2c1NC(=O)c1cccnc1N2C1CC1 | pol, reverse transcriptase (Feline immunodeficiency virus, UniProt P16088) | SPR |  |  | relative to: FIV RT over HIV-1 RT | KD ratio | 3.7 fold
COc1ccc(N2C(=O)N(c3c(C)cccc3Cl)Cc3cnc(Nc4ccc(C5CCN(C)CC5)cc4OC)nc32)nc1 | eIF-2-alpha kinase GCN2 (EIF2AK4, Homo sapiens, UniProt Q9P2K8) | kinase activity |  | 0.5 µM |  | inhibition | 0.375%
[2H]c1c([2H])c([C@]2([2H])CCCN2C(=O)C(C)(C)Oc2ccc3cn[nH]c3c2)c([2H])c([2H])c1C([2H])([2H])[2H] | Serine/threonine-protein kinase 24 (STK24, Homo sapiens, UniProt Q9Y6E0) | KINOMEscan |  | 1 µM | relative to: DMSO control | remaining binding | 88%
COc1cc(N)c(Cl)cc1C(=O)NC1CN2CCC1CC2 (centres unmarked) | G-protein coupled receptor family C group 5 member B (GPRC5B, Homo sapiens, UniProt Q9NZH0) | β-arrestin recruitment, TANGO luminescence, refers to: GPRC5B |  | concentration not given | relative to: basal luminescence | log2 fold change | 0.281
Cc1[nH]cnc1CN1CCc2c(c3ccccc3n2C)C1=O | Acetylcholinesterase (ACHE, Homo sapiens, UniProt P22303) |  | biochemical | concentration not given |  | activity class | inactive
COc1cc(Nc2ncc(F)c(Nc3ccc4c(n3)NC(=O)C(C)(C)O4)n2)cc(OC)c1OC | Hormonally up-regulated neu tumor-associated kinase (HUNK, Homo sapiens, UniProt P57058) | KINOMEscan |  | 10 µM |  | inhibition | 0%
O=C(c1ccc(Cl)cc1)N1CCN2C(=O)N(OC(=O)N3CCOc4ccccc43)C(=O)C2C1 (centres unmarked) | Peptidyl-prolyl cis-trans isomerase A (PPIA, Homo sapiens, UniProt P62937) | MS-based ABPP | SW-620 conditioned medium | 10 µM, 1 h, 37 °C | relative to: compound over DMSO, lower = more inhibition | mean protein ratio | 1.21
OC1Cc2ccccc2CC1N1CCC2(CC1)C(Br)=Cc1ccccc12 (racemic) | Vesicular acetylcholine transporter (Rattus norvegicus, UniProt Q62666) |  | rat liver (sigma2) |  | relative to: Ki sigma2 over Ki VAChT | selectivity ratio | 440
CN1CCN(c2cc(-c3ccncc3)c(-c3ccc4ccccc4c3)nn2)CC1 | Pyroglutamylated RF-amide peptide receptor (QRFPR, Homo sapiens, UniProt Q96P65) | agonist, FLIPR |  | 12.5 µM |  | activation | 6.3%
Oc1ccc2ccc3cccc4ccc1c2c34 | Aryl hydrocarbon receptor (Danio rerio, UniProt Q9YGV3) | reporter gene, agonist, luciferase reporter | ZF-4 | 3333.33 µM | relative to: vehicle control | fold change | 1.7
C[C@H]1CN(c2n[nH]c3nc(N[C@H]4CC[C@H](NS(=O)(=O)CCC(F)(F)F)CC4)ncc23)CCO1 | Aspartate--tRNA ligase, cytoplasmic (DARS1, Homo sapiens, UniProt P14868) | Kinobeads competition, refers to: DARS |  | 0.032 µM, unit not given | relative to: vehicle | remaining binding | 1.06
Cc1cc(Nc2ccc(C)c(Cl)c2)n2ncnc2n1 | PFF0160c E182D | enzyme activity, DCIP colorimetric |  |  | relative to: E182D mutant over wild type | IC50 ratio | 6.4

Some of these lines once more:
SMILES | target | test | test system | conditions | how to read | endpoint | value
CN1CCN(c2cc(-c3ccncc3)c(-c3ccc4ccccc4c3)nn2)CC1 | Pyroglutamylated RF-amide peptide receptor (QRFPR, Homo sapiens, UniProt Q96P65) | agonist, FLIPR |  | 12.5 µM |  | activation | 6.3%
Cc1ccnc2c1NC(=O)c1cccnc1N2C1CC1 | pol, reverse transcriptase (Feline immunodeficiency virus, UniProt P16088) | SPR |  |  | relative to: FIV RT over HIV-1 RT | KD ratio | 3.7 fold
